{"data": "Published values of several laboratories", "note": "A part holds a random share of what one study measured. Changes are numbered by the printed parent chain."}
{"data": "Study 1", "target": "ABI1, truncated, D143A, DHFR fusion (Arabidopsis thaliana)", "technique": "DHFR PCA, deep sequencing", "medium": "yeast", "notes": "methotrexate growth selection, single substitutions", "added": "(+)-ABA 58 µM", "reference": "wild-type fitted maximum", "reading": "higher = stronger binding", "parent": "PYL1, truncated, DHFR fusion (Arabidopsis thaliana); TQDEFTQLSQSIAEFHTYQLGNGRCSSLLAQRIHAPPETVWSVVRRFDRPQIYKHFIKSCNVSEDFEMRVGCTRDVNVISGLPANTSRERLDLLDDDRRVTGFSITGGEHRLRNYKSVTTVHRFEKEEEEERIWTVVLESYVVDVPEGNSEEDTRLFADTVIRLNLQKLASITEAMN; partner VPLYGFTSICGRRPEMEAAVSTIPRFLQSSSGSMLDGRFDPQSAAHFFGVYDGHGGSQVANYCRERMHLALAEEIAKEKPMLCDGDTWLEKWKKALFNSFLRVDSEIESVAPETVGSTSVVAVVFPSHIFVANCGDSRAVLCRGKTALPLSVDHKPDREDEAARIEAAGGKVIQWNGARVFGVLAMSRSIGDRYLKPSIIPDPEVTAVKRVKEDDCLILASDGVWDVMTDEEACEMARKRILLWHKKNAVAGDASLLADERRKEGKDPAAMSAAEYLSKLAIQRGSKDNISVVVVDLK"}
{"Change": "N165F", "relative binding score [%]": -9.69}
{"Change": "L20S", "relative binding score [%]": 91.8}
{"Change": "N149S", "relative binding score [%]": 80.7}
{"Change": "R88I", "relative binding score [%]": 85.1}
{"Change": "D97P", "relative binding score [%]": 59.9}
{"Change": "D65T", "relative binding score [%]": 80.7}
{"Change": "Q19M", "relative binding score [%]": 83.4}
{"Change": "S87Y", "relative binding score [%]": 26.2}
{"Change": "I105M", "relative binding score [%]": 57}
{"Change": "L28V", "relative binding score [%]": 83.5}
{"Change": "I133Q", "relative binding score [%]": 100}
{"Change": "L82Q", "relative binding score [%]": 29}
{"Change": "R111T", "relative binding score [%]": 9.3}
{"Change": "Q7F", "relative binding score [%]": 82.2}
{"Change": "I57H", "relative binding score [%]": -11.4}
{"data": "Study 2", "target": "Sal-like protein 4, full length isoform A (SALL4, Homo sapiens, UniProt Q9UJQ4, residues 1-1053)", "technique": "universal PBM", "molecule type": "double-stranded DNA, one strand shown", "medium": "in vitro", "tested at": "600 nM", "notes": "8-mer, flanks averaged, mean of replicates", "reading": "higher = stronger binding", "chain of UniProt Q9UJQ4 (whole entry, looked up)": "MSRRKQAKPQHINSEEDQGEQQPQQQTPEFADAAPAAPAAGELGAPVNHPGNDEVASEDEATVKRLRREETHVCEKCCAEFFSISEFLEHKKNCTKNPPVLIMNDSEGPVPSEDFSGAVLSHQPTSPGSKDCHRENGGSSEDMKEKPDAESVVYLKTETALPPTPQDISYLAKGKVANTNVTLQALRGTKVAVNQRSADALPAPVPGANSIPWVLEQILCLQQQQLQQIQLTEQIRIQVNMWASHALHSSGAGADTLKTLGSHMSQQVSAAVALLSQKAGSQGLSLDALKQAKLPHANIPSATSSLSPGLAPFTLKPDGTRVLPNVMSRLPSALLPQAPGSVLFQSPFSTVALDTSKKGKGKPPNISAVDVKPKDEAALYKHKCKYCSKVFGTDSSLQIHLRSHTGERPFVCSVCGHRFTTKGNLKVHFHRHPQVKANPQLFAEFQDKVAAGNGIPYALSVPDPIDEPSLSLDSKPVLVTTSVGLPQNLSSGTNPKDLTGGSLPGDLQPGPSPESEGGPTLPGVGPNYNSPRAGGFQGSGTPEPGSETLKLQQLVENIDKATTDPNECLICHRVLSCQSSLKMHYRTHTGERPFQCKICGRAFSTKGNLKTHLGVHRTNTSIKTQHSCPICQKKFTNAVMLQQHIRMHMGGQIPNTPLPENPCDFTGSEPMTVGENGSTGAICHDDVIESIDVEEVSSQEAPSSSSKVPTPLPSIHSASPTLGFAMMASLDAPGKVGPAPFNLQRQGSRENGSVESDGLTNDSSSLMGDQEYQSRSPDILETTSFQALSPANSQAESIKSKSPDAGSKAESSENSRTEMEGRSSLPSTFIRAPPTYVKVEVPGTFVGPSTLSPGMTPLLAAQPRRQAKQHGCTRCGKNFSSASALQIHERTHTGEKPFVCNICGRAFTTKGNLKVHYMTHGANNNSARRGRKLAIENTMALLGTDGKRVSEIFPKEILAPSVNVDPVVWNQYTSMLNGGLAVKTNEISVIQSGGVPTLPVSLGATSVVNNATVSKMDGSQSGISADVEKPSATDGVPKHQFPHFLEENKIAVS"}
{"Strand": "CGACTAGA", "E-score": -0.0576}
{"Strand": "CGACCATC", "E-score": -0.196}
{"Strand": "CTAAATTC", "E-score": 0.0413}
{"Strand": "ACCGCTTC", "E-score": -0.213}
{"Strand": "AAAGTTGC", "E-score": 0.0107}
{"Strand": "GTGGCTTA", "E-score": -0.119}
{"Strand": "ACGGTGTC", "E-score": -0.247}
{"Strand": "CGATTAAC", "E-score": 0.0518}
{"Strand": "ACCACTCC", "E-score": -0.213}
{"Strand": "GCCTGTAC", "E-score": -0.0297}
{"Strand": "AACTTACG", "E-score": 0.127}
{"Strand": "GGGGGAGA", "E-score": -0.216}
{"Strand": "ATACGCTG", "E-score": -0.0372}
{"Strand": "ATTTAGTG", "E-score": 0.267}
{"Strand": "TACCTGCA", "E-score": -0.0739}
{"Strand": "AGGGATGC", "E-score": -0.184}
{"Strand": "CGGCGGCC", "E-score": -0.355}
{"Strand": "AGAGTGAC", "E-score": -0.148}
{"data": "Study 3", "target": "RNA binding protein fox-1 homolog 2, RRM domain, GST-SBP tag (RBFOX2, Homo sapiens, UniProt O43251-10, residues 100-194)", "technique": "RNA Bind-n-Seq", "molecule type": "RNA", "medium": "in vitro", "tested at": "365 nM", "notes": "natural RNA segment, single round, ends assumed", "reference": "no-protein control", "reading": "higher = stronger binding", "constant ends, left off below": "GGGAGUUCUACAGUCCGACGAUC … UGGAAUUCUCGGGUGCCAA", "Target sequence (chain)": "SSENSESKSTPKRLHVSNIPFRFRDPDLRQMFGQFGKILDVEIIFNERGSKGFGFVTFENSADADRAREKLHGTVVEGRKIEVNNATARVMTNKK"}
{"Strand": "UAAAGGGGGAAUCUUAUAAAAUCCUGUGCAAUAGACAUACAUAGCUGUACUCAGAAGGGCUGUCUUCAUCUGGACUCCCACUAGAGAACAGGCGAGCUCCUGAGGGCUCU", "RBNS enrichment (R)": 0.261}
{"Strand": "GAUCUUACAGACUGUAUCAGUCUAAUUUUUAAAUUUUAAGUUAUUUUGUACAGCUUUGUAAAUUCUUAACAUUUUUAUAUUGCCAUGUUUAUUUUGUUUGGGUAAUUUGG", "RBNS enrichment (R)": 0.889}
{"Strand": "GCUGCAGGAUAGUACAGUUUUACCGCAGAGGGAAUCUGGAACAGUGGAAUCAUGUGUCUGCCCUGUGUAUUGCAGUUUGUAUUGCCACAAGCUAUAUUUAUACCAGUGUC", "RBNS enrichment (R)": 0.72}
{"Strand": "UUGGACACUCCUGAGACUCCAAGUCUGGCUUUCAGUUCAGUUUUCAUCUGUGUUGACAUCGGGGCCAGAAAGCACAGCCAGCUAAAUGGGCCUCUGAGGUCACCUUCCCU", "RBNS enrichment (R)": 0.243}
{"Strand": "GAUGUGAUUCCCAACACAGAAUUUUCAUGACCCUUUUAUUGUAUACAAAUAAAUACCAUAACAGUUACUUGGUUAGACAUCAAAUCUGUGUGCAUGACUAUGUGCUUAUC", "RBNS enrichment (R)": 14.4}
{"Strand": "UGUUGGGUGCAAAGUUCCCUACUUCCUGUGACUUCAGCUCUGUUUUACAAUAAAAUCUUGAAAAUGCCUAUAUUGUUGACUAUGUCCUUGGCCUUGACAGGCUUUGGGUA", "RBNS enrichment (R)": 0.42}
{"Strand": "AUACUUCAGCUGUUCUUUGCCUGCACUUAUUAUAUACAUUGUUUCAUGCACAGUUAUUACAAAUCAGGAGCGUUUGGAAAGUUCACUGGGACGAGUGUGAUUUUUUGUUG", "RBNS enrichment (R)": 0.39}
{"Strand": "CCUGAUCUUUAACAAAGCAUUAAUAAUUCUAAGGAUAAUCUCUAUUUUGUUGUGCUUUUUUGUAACUGUUUUAAAUAAAUCAAUUUGUACUGUAUAUUUGUACUUUUGUG", "RBNS enrichment (R)": 0.726}
{"data": "Study 4", "target": "Ras GTPase-activating protein-binding protein 1, C-terminal RGG region (G3BP1, Homo sapiens, UniProt Q13283)", "technique": "RNA Bind-n-Seq", "molecule type": "RNA", "medium": "in vitro", "tested at": "1 µM", "notes": "whole 134-nt RNA, ends assumed", "added": "150 mM KCl", "reference": "input library", "reading": "higher = stronger binding", "constant ends, left off below": "GGGAGUUCUACAGUCCGACGAUC … UGGAAUUCUCGGGUGUCAAGG", "chain of UniProt Q13283 (whole entry, looked up)": "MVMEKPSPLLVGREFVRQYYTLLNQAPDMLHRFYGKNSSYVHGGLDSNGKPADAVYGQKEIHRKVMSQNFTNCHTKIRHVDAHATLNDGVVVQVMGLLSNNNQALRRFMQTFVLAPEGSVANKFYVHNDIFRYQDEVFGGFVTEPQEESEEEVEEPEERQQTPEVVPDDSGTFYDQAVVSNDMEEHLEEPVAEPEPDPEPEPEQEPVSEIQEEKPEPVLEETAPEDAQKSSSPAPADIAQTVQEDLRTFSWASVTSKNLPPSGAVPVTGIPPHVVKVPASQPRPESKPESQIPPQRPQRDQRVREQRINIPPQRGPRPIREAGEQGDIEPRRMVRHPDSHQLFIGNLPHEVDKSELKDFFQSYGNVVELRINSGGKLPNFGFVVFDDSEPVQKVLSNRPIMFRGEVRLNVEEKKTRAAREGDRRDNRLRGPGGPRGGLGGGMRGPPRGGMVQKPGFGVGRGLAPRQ"}
{"Strand": "CCUGUGCUACACAUCGUAUGUACCGAAUCGGGGUUUUUGGGGAAAGGGGUUUUUUUGGGGAAAGUAUUAUGUUACGCCGUUCGGAUCUGC", "log2 enrichment": 1.32}
{"Strand": "UAACUUUAGAGGAGGAUCUGAUGGAUAUGGCAGUGGACGUGGAUUUGGGGAUGGCUAUAAUGGGUAAGGAGGAGGACCUGGAGGUGGCAA", "log2 enrichment": -0.681}
{"Strand": "UGGGAGGUGGAUUUUGUUUAUUUUUUUAGCUCAUUUCCAGGGGUGGGAAUUUUUUUUUAAUAUGUGCCAUGAAUAAAGUUGUUUUUGAAA", "log2 enrichment": 3.68}
{"Strand": "UAACUUUAGAGGAGGAUCUGAUGGAUAUGGCAGUGGACGUGCAUUUGGGGAUGGCUAUAAUGGGUAUGGAGGAGGACCUGGAGGUGGCAA", "log2 enrichment": -1.3}
{"Strand": "UCAAGUCCUGUGCUACACAUCGUAUGUACCGAAUCGGUUUUUUUGGAAAGGUGGAAAGUAUUAUGUUACGCCGUUCGGAUCUGCACUUCC", "log2 enrichment": -1.11}
{"Strand": "GUCCUGUGCUACACAUCGUAUGUACCGAAUCGGGGAAAAAGGGGAAAAAGGAAAAAGGAAAGUAUUAUGUUACGCCGUUCGGAUCUGCAC", "log2 enrichment": -1.14}
{"Strand": "CUGUGCUACACAUCGUAUGUACCGAAUCGGUUUUUUUGGGGUUUUUUUGGGGUUUUUUUGGAAAGUAUUAUGUUACGCCGUUCGGAUCUG", "log2 enrichment": -1.14}
{"Strand": "CAAGUCCUGUGCUACACAUCGUAUGUACCGAAUCGGGGCCCGGCCCGGGCCCGGGGAAAGUAUUAUGUUACGCCGUUCGGAUCUGCACUU", "log2 enrichment": -2.16}
{"Strand": "CAAGUCCUGUGCUACACAUCGUAUGUACCGAAUCGGGAAAAGGGAAAAGGAAAAGGAAAGUAUUAUGUUACGCCGUUCGGAUCUGCACUU", "log2 enrichment": -1.87}
{"data": "Study 5", "target": "CCNE1, cyclin fold, Cln2 fusion (human)", "technique": "yeast growth competition, sequencing", "medium": "yeast", "notes": "weak parent motif", "reference": "not given", "reading": "higher = stronger binding", "parent": "ORC1 docking peptide (human); PRARKRLELGNLG"}
{"Change": "K5A", "normalised enrichment score": -0.104}
{"Change": "R6P", "normalised enrichment score": 0.209}
{"Change": "A3M", "normalised enrichment score": 2.45}
{"Change": "P1K", "normalised enrichment score": 1.1}
{"Change": "A3T", "normalised enrichment score": 0.671}
{"Change": "E8R", "normalised enrichment score": 0.312}
{"Change": "G10P", "normalised enrichment score": -0.483}
{"Change": "L7K", "normalised enrichment score": 0.854}
{"Change": "G13A", "normalised enrichment score": -0.141}
{"Change": "N11K", "normalised enrichment score": -0.0933}
{"Change": "L7C", "normalised enrichment score": 0.0671}
{"Change": "L12Q", "normalised enrichment score": -0.229}
{"Change": "G10H", "normalised enrichment score": -0.0497}
{"Change": "G10W", "normalised enrichment score": 1.38}
{"Change": "E8F", "normalised enrichment score": 0.816}
{"Change": "L9A", "normalised enrichment score": 0.684}
{"Change": "N11H", "normalised enrichment score": 0.241}
{"Change": "P1A", "normalised enrichment score": 0.538}
{"Change": "G13C", "normalised enrichment score": 0.022}
{"Change": "G13I", "normalised enrichment score": -0.492}
{"Change": "A3Q", "normalised enrichment score": 0.797}
{"Change": "N11W", "normalised enrichment score": 0.936}
{"Change": "E8C", "normalised enrichment score": -0.171}
{"Change": "R6C", "normalised enrichment score": 0.179}
{"Change": "N11L", "normalised enrichment score": 0.856}
{"data": "Further values, each from its own experiment"}
{"Substance": "PhoQ, residues 284 288 289 292 302 303 TSTLRA", "target": "PhoP, residues 12 14 15 18 19 GHCSL (Escherichia coli, UniProt P23836)", "test": "Sort-seq, item: YFP reporter", "system": "E. coli", "setting": "PhoQ-PhoP variant library, added: 10 µM Mg2+", "how to read": "reference: high Mg2+ state, higher = stronger signaling", "measurement": "fold induction", "value": 38.7}
{"note": "Excerpt of the above (study 5):"}
{"Change": "N11K", "normalised enrichment score": -0.0933}
{"Change": "L7C", "normalised enrichment score": 0.0671}
{"Change": "L12Q", "normalised enrichment score": -0.229}
{"Change": "G10H", "normalised enrichment score": -0.0497}
{"Change": "G10W", "normalised enrichment score": 1.38}
{"Change": "E8F", "normalised enrichment score": 0.816}
{"Change": "L9A", "normalised enrichment score": 0.684}
{"Change": "N11H", "normalised enrichment score": 0.241}
{"Change": "P1A", "normalised enrichment score": 0.538}
{"Change": "G13C", "normalised enrichment score": 0.022}
{"Change": "G13I", "normalised enrichment score": -0.492}
{"Change": "A3Q", "normalised enrichment score": 0.797}
{"Change": "N11W", "normalised enrichment score": 0.936}
